Published values of several laboratories.
Numbered parts are unrelated; each lists some results of a single study. Several values in a cell are separate wells, animals, samples, runs or records.
Chain of UniProt Q96L34 (whole entry, looked up): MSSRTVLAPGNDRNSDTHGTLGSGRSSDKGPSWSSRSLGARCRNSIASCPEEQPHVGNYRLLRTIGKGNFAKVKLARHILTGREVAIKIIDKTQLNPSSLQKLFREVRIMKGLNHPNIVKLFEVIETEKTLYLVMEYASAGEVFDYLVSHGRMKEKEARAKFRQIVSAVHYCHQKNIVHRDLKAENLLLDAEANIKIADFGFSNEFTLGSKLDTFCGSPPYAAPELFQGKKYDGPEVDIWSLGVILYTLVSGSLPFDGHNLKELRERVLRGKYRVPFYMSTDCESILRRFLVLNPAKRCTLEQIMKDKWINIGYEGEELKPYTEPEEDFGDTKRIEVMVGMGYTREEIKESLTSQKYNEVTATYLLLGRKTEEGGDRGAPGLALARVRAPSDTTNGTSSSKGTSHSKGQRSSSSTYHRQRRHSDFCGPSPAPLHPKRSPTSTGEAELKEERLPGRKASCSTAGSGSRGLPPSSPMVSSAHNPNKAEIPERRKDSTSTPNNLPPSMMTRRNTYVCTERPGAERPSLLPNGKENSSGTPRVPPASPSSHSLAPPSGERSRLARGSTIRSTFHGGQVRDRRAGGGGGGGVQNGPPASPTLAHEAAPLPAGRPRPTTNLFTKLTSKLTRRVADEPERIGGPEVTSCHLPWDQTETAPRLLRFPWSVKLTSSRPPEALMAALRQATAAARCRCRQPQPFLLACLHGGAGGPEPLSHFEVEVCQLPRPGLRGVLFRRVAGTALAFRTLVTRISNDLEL
Chain of UniProt Q15759 (whole entry, looked up): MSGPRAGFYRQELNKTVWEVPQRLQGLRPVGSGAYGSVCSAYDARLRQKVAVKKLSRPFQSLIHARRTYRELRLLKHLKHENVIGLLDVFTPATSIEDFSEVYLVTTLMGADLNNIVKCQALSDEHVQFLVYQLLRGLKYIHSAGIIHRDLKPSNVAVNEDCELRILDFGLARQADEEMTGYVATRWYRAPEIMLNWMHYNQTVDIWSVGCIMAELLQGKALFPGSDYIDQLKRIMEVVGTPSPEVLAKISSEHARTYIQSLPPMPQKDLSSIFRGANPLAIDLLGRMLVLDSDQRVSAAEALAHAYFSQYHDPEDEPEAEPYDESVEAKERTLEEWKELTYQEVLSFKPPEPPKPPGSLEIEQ
Chain of UniProt Q13464 (whole entry, looked up): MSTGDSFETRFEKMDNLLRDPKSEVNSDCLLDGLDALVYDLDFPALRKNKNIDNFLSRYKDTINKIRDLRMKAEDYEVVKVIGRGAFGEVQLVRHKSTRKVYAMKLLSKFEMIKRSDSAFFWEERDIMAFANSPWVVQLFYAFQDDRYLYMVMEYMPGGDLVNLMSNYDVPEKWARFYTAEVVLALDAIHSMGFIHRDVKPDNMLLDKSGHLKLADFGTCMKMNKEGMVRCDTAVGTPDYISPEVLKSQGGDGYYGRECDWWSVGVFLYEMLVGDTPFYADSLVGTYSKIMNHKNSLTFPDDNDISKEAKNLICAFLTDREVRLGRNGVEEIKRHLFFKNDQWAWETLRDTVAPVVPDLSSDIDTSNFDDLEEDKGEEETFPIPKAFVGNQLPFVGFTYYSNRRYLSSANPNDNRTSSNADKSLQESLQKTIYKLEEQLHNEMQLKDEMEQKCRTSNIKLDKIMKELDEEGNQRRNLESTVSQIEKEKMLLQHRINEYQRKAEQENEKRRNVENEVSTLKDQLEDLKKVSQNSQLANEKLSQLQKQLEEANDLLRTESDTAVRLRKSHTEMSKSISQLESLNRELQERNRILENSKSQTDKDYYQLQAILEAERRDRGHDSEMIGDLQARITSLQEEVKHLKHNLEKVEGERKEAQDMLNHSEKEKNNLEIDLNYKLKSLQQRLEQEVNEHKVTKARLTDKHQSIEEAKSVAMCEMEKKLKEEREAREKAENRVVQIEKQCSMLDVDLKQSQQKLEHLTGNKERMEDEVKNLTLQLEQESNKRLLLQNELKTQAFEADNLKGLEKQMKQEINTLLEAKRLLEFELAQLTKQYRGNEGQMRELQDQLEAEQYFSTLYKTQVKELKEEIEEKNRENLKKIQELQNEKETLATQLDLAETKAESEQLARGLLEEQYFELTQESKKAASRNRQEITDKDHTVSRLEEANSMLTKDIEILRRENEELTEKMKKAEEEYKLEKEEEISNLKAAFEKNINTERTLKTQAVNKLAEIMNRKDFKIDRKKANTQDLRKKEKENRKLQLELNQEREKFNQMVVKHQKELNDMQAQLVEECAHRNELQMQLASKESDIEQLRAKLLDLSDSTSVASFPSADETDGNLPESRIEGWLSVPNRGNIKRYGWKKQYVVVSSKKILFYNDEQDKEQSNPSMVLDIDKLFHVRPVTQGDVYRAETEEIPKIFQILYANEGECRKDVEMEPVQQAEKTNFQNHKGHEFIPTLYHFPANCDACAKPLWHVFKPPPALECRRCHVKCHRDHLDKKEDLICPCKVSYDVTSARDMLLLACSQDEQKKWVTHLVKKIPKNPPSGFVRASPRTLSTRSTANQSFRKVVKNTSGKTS
Chain of UniProt P51956 (whole entry, looked up): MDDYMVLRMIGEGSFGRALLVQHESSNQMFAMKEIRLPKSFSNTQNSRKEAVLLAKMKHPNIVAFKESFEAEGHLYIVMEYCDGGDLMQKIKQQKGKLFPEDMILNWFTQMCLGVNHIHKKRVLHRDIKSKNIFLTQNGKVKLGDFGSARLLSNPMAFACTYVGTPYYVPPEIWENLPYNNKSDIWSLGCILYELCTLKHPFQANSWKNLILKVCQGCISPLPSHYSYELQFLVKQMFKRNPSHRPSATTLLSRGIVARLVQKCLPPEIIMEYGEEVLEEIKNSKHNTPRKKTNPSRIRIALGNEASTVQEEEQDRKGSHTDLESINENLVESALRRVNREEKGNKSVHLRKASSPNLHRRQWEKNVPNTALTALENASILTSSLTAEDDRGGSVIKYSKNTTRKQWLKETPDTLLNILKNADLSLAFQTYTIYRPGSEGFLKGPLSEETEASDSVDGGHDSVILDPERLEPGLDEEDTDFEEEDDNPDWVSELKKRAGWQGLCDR
Chain of UniProt P06493 (whole entry, looked up): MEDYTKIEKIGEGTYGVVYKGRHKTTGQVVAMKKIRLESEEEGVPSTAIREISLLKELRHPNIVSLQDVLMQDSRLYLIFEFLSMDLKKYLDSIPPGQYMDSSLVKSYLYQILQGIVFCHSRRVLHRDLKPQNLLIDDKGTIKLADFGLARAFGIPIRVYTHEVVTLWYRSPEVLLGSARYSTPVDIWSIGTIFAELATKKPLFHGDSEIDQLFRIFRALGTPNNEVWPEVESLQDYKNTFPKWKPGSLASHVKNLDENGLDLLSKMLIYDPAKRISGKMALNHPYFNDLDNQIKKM
Chain of UniProt Q9H4B4 (whole entry, looked up): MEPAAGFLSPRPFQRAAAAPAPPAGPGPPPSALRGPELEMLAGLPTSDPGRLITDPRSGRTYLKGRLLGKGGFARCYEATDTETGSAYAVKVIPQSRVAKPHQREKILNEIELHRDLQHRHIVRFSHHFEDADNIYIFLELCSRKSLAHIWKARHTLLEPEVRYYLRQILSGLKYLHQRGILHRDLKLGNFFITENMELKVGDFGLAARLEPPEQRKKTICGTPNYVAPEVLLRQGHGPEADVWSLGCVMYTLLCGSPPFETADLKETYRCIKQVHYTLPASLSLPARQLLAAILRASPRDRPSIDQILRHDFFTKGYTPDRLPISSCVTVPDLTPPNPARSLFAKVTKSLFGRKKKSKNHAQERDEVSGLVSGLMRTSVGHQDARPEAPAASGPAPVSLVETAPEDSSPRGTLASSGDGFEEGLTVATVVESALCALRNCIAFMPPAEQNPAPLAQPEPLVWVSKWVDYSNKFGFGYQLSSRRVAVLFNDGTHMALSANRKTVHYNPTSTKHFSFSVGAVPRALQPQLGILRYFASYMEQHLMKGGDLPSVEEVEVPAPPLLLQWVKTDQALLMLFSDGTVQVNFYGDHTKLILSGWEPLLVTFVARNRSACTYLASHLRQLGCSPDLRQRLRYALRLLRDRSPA
Chain of UniProt P32298 (whole entry, looked up): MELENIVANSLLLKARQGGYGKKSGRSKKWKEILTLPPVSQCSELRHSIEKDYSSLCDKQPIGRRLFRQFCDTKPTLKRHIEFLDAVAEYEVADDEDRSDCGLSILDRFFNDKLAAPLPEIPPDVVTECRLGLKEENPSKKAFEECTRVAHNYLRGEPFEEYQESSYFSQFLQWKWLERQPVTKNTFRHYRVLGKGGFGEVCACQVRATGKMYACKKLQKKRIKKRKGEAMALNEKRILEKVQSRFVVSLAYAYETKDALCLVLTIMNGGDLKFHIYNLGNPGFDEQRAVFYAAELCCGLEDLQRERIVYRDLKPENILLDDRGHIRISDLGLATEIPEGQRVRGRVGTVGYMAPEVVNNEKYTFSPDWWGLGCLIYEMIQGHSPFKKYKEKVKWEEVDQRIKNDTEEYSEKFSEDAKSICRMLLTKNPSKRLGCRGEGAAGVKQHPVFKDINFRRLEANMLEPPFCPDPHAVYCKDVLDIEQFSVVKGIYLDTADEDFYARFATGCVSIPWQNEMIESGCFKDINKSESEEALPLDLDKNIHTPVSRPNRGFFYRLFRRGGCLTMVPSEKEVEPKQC

Set 1 — species: mouse; matrix: microsomes or S9; concentration: 2 µM; time: 0.5 h
SMILES | remaining compound
COc1ccc(C)cc1NS(=O)(=O)c1cn(C)nc1C | 5.65%
COc1cccc(N2CCN(c3ncnc4[nH]cnc34)CC2)c1 | 57.3%
CCC(CC)CN(CC(=O)OC)S(=O)(=O)c1ccc(S(C)(=O)=O)cc1 | 99.9%
CCOc1cc(=O)n2c(c1C(=O)Nc1cc(Cl)ccc1OC)CCCC2 | 13.5%
COc1ccc(-c2c(-c3ccccc3)nn(-c3ccc(C)cc3)c2N)cc1OC | 3.65%
COc1cc(CN2CCC(NC(=O)NC3CCCCC3)CC2)cc(OC)c1OC | 81.9%

Set 2 — cell line: normal organoid sample H; technique: CellTiter-Glo; species: human; matrix: normal-adjacent epithelium; concentration: 1 µM; relative to: DMSO
Compound | viability
C[C@@H](c1cccc(C#N)c1)n1cc(Cl)cc(C(N)=O)c1=N | 110% and 104%
Cc1cc(-n2nc(Cc3cc(F)cc(C(F)(F)F)c3)nc2C)ccc1C(N)=O | 103%
CO[C@H]1CC[C@H](CNc2ccc(S(=O)(=O)NC(=O)c3ccc(N4CCN(CC5=C(c6ccc(Cl)cc6)CC(C)(C)CC5)CC4)cc3Oc3cnc4[nH]ccc4c3)cc2[N+](=O)[O-])CC1 | 104% and 111%
O=C(Nc1cnc(Oc2ccc(F)cc2)nc1)N1CCc2ncccc2[C@@H]1c1ccc(F)cc1 | 108% and 125%
Cn1cc(Cl)c2c(Oc3c(F)cc(Nc4cc(Cl)nc(N)n4)cc3F)ccnc21 | 118% and 93%
Cc1ccc2[nH]c(CNCCCc3ccncc3)cc(=O)c2c1 | 126% and 97.9%
CN(C)CC#Cc1ccc(OCCCc2sc(N3CCc4cccc(C(=O)Nc5nc6ccccc6s5)c4C3)nc2C(=O)O)c(F)c1 | 139% and 111%
Cc1c(C(=O)O)cc(-c2ccc(C3CCNCC3)cc2)c2ccc(-c3ccc(C(F)(F)F)cc3)cc12 | 95.3% and 118%

Set 3 — read-out: enzyme activity; mode: inhibitor; concentration: 0.5 µM; relative to: control
Compound: CC[n+]1c(/C=C/N(C)c2ccccc2)n(-c2ccccc2)c2ccc(-c3nc4ccccc4s3)cc21
target | remaining activity [%]
PAK3 (Homo sapiens, UniProt O75914) | 109
DCLK2 (Homo sapiens, UniProt Q8N568) | 102
Cyclin-dependent kinase 1, with cyclin A (CDK1, Homo sapiens, UniProt P06493) | 98.8
CDC42BPB (Homo sapiens, UniProt Q9Y5S2) | 95
PRKG2 (Homo sapiens, UniProt Q13237) | 92.4
MET (Homo sapiens, UniProt P08581) | 108
ROCK1 (Homo sapiens, UniProt Q13464) | 98.1
CAMK4 (Homo sapiens, UniProt Q16566) | 93.2
MAPK11 (Homo sapiens, UniProt Q15759) | 101
KDR (Homo sapiens, UniProt P35968) | 93.9
GRK4 (Homo sapiens, UniProt P32298) | 103
NEK3 (Homo sapiens, UniProt P51956) | 102
MARK4 (Homo sapiens, UniProt Q96L34) | 110
PLK3 (Homo sapiens, UniProt Q9H4B4) | 104

Further values, each from its own experiment — read-out: enzyme activity; mode: inhibitor; technique: ADP detection; concentration: 10 µM
Target: Calcium/calmodulin-dependent protein kinase type II subunit alpha (CAMK2A, Homo sapiens, UniProt Q9UQM7)
Chain of UniProt Q9UQM7 (whole entry, looked up): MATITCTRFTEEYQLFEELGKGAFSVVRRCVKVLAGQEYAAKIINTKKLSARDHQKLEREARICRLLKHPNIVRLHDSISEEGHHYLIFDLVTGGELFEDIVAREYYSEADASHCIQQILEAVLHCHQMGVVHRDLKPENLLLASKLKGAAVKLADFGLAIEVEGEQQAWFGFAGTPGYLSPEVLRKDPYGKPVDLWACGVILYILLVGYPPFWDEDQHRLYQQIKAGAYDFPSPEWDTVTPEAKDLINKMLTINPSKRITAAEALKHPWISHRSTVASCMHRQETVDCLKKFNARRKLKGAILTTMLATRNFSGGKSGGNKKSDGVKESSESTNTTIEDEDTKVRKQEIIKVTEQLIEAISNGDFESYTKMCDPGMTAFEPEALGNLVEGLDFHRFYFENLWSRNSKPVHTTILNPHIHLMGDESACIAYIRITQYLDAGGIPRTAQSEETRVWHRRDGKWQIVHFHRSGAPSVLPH
Compound | inhibition [%]
CCN(CC)CCNC(=O)c1c(C)[nH]c(/C=C2\C(=O)Nc3ccc(F)cc32)c1C | > 80
N#CC[C@H](C1CCCC1)n1cc(-c2ncnc3[nH]ccc23)cn1 | > 80

A few entries again (set 3):
target | remaining activity [%]
Cyclin-dependent kinase 1, with cyclin A (CDK1, Homo sapiens, UniProt P06493) | 98.8
PAK3 (Homo sapiens, UniProt O75914) | 109
CDC42BPB (Homo sapiens, UniProt Q9Y5S2) | 95
CAMK4 (Homo sapiens, UniProt Q16566) | 93.2
DCLK2 (Homo sapiens, UniProt Q8N568) | 102
